Results of several laboratories.
Numbered parts are unrelated; each lists some results of a single study. “And” joins repeats or separate records; there may be more than shown.
Sequence of UniProt Q12866 (whole entry, looked up): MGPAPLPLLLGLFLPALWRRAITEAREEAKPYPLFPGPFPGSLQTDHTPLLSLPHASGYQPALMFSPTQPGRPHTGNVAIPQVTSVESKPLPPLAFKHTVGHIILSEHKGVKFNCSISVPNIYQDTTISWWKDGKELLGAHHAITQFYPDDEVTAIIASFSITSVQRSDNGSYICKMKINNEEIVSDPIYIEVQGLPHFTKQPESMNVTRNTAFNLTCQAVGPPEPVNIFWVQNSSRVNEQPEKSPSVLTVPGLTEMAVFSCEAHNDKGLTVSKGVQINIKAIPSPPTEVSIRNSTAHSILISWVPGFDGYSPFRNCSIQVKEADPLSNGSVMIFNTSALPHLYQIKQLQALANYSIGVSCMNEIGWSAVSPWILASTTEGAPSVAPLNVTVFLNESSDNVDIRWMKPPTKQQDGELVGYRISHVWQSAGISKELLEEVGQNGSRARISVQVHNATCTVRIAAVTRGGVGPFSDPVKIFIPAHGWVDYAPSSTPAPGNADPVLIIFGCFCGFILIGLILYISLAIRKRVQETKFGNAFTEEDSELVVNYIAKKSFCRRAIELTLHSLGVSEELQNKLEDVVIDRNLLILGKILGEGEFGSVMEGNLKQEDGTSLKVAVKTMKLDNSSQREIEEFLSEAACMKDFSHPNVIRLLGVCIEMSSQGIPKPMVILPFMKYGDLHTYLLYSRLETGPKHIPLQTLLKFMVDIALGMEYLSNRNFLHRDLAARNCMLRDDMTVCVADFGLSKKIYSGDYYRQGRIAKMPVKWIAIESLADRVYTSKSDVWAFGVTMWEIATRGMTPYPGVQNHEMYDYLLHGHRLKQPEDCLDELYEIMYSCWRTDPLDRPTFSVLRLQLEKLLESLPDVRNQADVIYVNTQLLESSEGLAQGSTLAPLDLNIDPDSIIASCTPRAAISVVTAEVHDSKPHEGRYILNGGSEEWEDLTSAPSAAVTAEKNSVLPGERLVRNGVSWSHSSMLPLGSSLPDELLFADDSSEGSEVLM
Sequence of UniProt Q15349 (whole entry, looked up): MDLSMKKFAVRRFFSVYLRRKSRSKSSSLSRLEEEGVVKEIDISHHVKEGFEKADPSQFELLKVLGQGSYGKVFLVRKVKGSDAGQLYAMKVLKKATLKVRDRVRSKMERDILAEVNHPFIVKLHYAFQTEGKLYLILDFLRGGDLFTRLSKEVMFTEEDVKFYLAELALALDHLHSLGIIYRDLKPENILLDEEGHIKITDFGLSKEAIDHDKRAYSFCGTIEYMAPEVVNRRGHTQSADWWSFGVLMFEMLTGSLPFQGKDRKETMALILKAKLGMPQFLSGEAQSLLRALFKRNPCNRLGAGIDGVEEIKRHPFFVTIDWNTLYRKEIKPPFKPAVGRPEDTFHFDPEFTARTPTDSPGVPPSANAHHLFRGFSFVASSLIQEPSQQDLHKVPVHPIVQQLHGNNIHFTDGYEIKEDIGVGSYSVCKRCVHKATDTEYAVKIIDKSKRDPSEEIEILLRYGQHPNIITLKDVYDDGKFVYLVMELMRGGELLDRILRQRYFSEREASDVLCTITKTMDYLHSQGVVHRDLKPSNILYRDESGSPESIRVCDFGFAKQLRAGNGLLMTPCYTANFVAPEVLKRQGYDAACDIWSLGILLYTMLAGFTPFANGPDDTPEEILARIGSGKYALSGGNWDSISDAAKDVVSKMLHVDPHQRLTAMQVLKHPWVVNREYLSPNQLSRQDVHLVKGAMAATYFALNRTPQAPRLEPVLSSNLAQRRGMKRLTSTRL
Sequence of UniProt P78368 (whole entry, looked up): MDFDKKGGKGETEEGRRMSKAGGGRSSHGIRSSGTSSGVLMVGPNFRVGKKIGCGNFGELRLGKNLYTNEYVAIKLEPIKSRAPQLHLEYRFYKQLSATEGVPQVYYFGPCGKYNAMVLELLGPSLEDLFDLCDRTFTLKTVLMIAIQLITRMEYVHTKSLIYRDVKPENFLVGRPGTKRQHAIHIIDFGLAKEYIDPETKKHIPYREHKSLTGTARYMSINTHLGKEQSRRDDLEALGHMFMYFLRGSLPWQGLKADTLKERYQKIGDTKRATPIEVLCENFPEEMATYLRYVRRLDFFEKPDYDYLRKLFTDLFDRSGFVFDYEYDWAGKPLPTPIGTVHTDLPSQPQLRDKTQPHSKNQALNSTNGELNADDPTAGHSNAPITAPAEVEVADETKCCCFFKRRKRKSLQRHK
Sequence of UniProt P49137 (whole entry, looked up): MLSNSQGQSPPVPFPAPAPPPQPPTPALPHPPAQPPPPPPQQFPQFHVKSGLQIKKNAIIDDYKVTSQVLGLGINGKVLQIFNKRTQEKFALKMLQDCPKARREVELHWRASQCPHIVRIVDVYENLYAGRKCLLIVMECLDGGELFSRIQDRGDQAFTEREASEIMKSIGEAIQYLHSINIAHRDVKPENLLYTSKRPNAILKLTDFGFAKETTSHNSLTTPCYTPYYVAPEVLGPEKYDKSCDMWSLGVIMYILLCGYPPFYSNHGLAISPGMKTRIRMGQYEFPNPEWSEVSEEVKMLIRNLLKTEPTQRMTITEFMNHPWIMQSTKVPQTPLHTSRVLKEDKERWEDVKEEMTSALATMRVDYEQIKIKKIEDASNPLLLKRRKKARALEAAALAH
Sequence of UniProt Q9UL54 (whole entry, looked up): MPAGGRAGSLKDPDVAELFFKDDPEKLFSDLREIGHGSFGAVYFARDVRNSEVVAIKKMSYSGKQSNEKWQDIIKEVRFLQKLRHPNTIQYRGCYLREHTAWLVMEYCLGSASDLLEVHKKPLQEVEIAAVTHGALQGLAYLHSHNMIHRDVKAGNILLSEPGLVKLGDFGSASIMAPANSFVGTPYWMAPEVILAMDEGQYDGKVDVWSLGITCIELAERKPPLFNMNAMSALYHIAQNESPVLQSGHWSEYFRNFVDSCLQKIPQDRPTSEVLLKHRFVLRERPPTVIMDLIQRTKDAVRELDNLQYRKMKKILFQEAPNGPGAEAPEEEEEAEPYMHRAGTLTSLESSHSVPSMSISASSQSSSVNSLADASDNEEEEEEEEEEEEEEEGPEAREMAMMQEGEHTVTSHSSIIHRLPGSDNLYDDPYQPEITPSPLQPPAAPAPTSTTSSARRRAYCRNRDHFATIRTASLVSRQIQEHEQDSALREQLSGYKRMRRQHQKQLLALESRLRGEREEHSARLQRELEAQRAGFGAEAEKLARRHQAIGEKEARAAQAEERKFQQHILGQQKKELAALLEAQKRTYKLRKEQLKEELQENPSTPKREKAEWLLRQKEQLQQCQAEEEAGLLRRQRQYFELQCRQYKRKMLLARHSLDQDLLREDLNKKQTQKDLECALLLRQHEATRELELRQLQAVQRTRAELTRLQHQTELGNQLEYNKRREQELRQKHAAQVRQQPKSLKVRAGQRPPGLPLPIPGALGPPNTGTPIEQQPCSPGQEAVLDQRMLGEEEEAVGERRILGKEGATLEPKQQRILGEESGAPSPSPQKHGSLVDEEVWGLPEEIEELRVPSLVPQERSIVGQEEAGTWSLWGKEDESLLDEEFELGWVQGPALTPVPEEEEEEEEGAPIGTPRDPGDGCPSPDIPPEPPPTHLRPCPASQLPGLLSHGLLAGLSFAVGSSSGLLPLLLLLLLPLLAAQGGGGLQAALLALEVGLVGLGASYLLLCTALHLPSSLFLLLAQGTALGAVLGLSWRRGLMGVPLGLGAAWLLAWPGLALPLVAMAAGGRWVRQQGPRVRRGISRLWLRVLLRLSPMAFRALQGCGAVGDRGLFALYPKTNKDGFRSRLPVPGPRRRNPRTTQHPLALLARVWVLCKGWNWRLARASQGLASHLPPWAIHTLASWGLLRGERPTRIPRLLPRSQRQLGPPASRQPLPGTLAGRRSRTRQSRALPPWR
Sequence of UniProt P10398 (whole entry, looked up): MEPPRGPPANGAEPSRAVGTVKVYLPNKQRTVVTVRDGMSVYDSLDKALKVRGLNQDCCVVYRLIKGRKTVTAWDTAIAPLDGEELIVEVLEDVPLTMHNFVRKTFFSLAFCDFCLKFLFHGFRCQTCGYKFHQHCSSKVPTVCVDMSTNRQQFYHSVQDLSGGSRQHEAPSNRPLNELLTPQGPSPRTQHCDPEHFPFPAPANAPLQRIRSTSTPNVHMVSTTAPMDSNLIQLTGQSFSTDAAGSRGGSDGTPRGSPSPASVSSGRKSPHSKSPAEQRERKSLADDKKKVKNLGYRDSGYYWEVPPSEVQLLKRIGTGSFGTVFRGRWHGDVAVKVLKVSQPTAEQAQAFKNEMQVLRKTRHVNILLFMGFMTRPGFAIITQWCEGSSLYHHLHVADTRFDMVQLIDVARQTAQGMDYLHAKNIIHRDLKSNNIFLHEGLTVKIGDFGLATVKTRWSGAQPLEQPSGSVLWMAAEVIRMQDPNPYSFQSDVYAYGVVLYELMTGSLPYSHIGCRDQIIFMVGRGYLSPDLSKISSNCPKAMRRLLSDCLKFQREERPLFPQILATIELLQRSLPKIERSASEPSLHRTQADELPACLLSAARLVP

Study 1
Target: Alpha-2B adrenergic receptor (ADRA2B, Homo sapiens, UniProt P18089)
Sequence of UniProt P18089 (whole entry, looked up): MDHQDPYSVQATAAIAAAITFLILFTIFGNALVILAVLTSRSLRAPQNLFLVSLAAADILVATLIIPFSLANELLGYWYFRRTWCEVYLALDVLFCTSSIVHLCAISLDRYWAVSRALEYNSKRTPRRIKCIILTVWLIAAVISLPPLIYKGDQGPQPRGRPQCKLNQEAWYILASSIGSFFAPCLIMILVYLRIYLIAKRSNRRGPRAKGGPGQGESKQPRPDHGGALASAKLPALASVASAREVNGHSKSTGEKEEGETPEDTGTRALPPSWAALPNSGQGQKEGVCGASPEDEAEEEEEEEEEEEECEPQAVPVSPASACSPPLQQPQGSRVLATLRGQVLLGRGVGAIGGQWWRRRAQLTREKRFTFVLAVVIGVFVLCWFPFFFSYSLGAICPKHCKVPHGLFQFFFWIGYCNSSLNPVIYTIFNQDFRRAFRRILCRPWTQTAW
Read-out: binding
Technique: radioligand binding
Tested at: 10 µM
| SMILES | inhibition [%] |
| --- | --- |
| O=C([C@H]1C[C@H](O)CN1c1ccc(Cl)cc1)N1CC2COCC(C1)N2Cc1ccc(Cl)cc1 | -34.3 |
| CN(C)C(=O)Cn1cc(-c2nc([C@@](C)(c3ccc(-c4cnc(N)nc4)cc3)C3CC3)no2)cn1 | -19.2 |
| CS(=O)(=O)NCC[C@H](NC(=O)c1cncc2c1cnn2-c1ccc(F)cc1)c1ccnc(S(C)(=O)=O)c1 | -2.26 |
| Cc1c(N2CCCC2)nc2ccc(Br)cc2c1C(=O)NC[C@H](CCC(=O)O)c1ccccc1Cl | -20.9 |
| Cc1c(NC(=O)c2cc(C(N)=O)nc3cc(F)ccc23)c(C(F)(F)F)nn1Cc1ccc(C(C)(C)C)cc1 | 15.6 |
| Cc1nc(C2CCN(C(=O)c3ccc(OC(F)(F)F)cc3N)CC2)c2ncc(N3CCN(C)CC3)cc2n1 | -12.6 |
| CC(=O)N1CCC(c2ccc(C(=O)NC(=N)N)cc2C(F)(F)F)CC1 | 6.29 |
| COc1cc(-c2cn(C3CCc4ccccc4N(CC(F)(F)F)C3=O)nn2)ccc1-n1ccc(C)n1 (stereo not shown) | 7.14 |
| Cc1nc(Cc2cccc(C(F)(F)F)c2)sc1-c1ccc(C(N)=O)nc1 | 5.89 |
| CC(=O)Nc1c(F)cc(C(=O)N[C@H]2CC[C@H](O)CC2)cc1O[C@@H](C)c1ccccc1 | 3.38 |
| C[C@@H]1CN(c2cc(-c3nn(C)c4ccc(OC5(C)CC5)cc34)ncn2)C[C@H](C)O1 | 27.2 |
| O[C@]1(C(F)(F)F)CCCC[C@H]1Nc1ccc(F)cc1 | -20.1 |
| Cc1cc(-n2nc(Cc3cc(F)cc(C(F)(F)F)c3)nc2C)ccc1C(N)=O | 10.1 |
| CN1CCN(C(=O)C(C)(C)c2ccc(C(=O)Nc3cn4cc(-c5ccncc5)ccc4n3)cc2)CC1 | 19.3 |
| CNC(=O)c1ccc(Nc2ncc(C(F)(F)F)c(NCc3nccnc3N(C)S(C)(=O)=O)n2)cc1 | 5.76 |
| CCOC(=O)c1cc2cc(-c3cc(C(=O)NCc4ccc(C(=O)O)cc4)nn3C)ccc2[nH]1 | 16.4 |
| COc1cccc(CNC(=O)c2nc3scc(COCc4ccc(C(=O)O)cc4)c3c(=O)[nH]2)c1 | 11 |
| CCOCCn1cc(C(=O)Nc2ccc(-n3nc(-c4cccnc4)cc3C(F)(F)F)cn2)ccc1=O | 4.9 |
| CC(=O)Nc1nc(CN2CCC[C@H](Cc3cc(C)nc(C)c3)C2)cs1 | 59.1 |
| Cc1cc(C)c(-n2ccn3nc(-c4cccnc4)cc23)cc1NC(=O)c1cc(C#N)cc(S(F)(F)(F)(F)F)c1 | 18.1 |
| CNC(=O)Nc1ccc2c(c1)[C@]1(CC2)OC(=O)N(CC(=O)N(Cc2ccc(F)cc2)[C@@H](C)C(F)(F)F)C1=O | 10.2 |
| O=C(Nc1ccc(-n2nc(-c3cccnc3)cc2C(F)(F)F)cn1)c1ccc(-c2ccccc2)c(F)c1 | 1.26 |
| CN1C(=O)[C@@H](N2CCc3cn(Cc4ccccc4)nc3C2=O)COc2ccccc21 | 43.3 |
| Nc1c(C(=O)NCc2ccc(C(=O)NCCCC3CCCCC3)cc2)cnn1-c1ccccc1 | 17.7 |
| CC1=C(C#N)C(c2ccc3c(c2)c(NC(=O)c2ccccc2C)nn3C)C(C#N)=C(C)N1 | 20.7 |

Study 2
SMILES: COc1ccc(COc2ccc(Cc3cnc(N)nc3N)cc2OC)cc1
Read-out: enzyme activity
Action: inhibitor
Tested at: 0.5 µM
Baseline: control
| target | remaining activity |
| --- | --- |
| Casein kinase I isoform gamma-2 (CSNK1G2, Homo sapiens, UniProt P78368) | 101% |
| Mitogen-activated protein kinase kinase kinase 14 (MAP3K14, Homo sapiens, UniProt Q99558) | 81.8% |
| Ephrin type-A receptor 3 (EPHA3, Homo sapiens, UniProt P29320) | 109% |
| Macrophage-stimulating protein receptor (MST1R, Homo sapiens, UniProt Q04912) | 104% |
| Angiopoietin-1 receptor (TEK, Homo sapiens, UniProt Q02763) | 101% |
| Mitogen-activated protein kinase kinase kinase 5 (MAP3K5, Homo sapiens, UniProt Q99683) | 89% |
| Ribosomal protein S6 kinase alpha-2 (RPS6KA2, Homo sapiens, UniProt Q15349) | 105% |
| Tyrosine-protein kinase Lck (LCK, Homo sapiens, UniProt P06239) | 96.3% |
| Serine/threonine-protein kinase TBK1 (TBK1, Homo sapiens, UniProt Q9UHD2) | 103% |
| Tyrosine-protein kinase Mer (MERTK, Homo sapiens, UniProt Q12866) | 90.3% |
| Serine/threonine-protein kinase Nek6 (NEK6, Homo sapiens, UniProt Q9HC98) | 99.4% |
| Rhodopsin kinase GRK7 (GRK7, Homo sapiens, UniProt Q8WTQ7) | 104% |
| Wee1-like protein kinase (WEE1, Homo sapiens, UniProt P30291) | 90.3% |
| Serine/threonine-protein kinase TAO2 (TAOK2, Homo sapiens, UniProt Q9UL54) | 94.7% |
| Tyrosine-protein kinase JAK3 (JAK3, Homo sapiens, UniProt P52333) | 95.9% |
| Dual specificity mitogen-activated protein kinase kinase 2 (MAP2K2, Homo sapiens, UniProt P36507) | 101% |
| Serine/threonine-protein kinase A-Raf (ARAF, Homo sapiens, UniProt P10398) | 96.6% |
| Fibroblast growth factor receptor 1 (FGFR1, Homo sapiens, UniProt P11362) | 108% |
| Activin receptor type-1B (ACVR1B, Homo sapiens, UniProt P36896) | 97.8% |
| MAP kinase-activated protein kinase 2 (MAPKAPK2, Homo sapiens, UniProt P49137) | 103% |
| Serine/threonine-protein kinase ULK2 (ULK2, Homo sapiens, UniProt Q8IYT8) | 105% |

Study 3
Structure (SMILES): C[C@@H]1[C@H](O)[C@@H](C)/C=C/C=C/C=C/C=C/C=C/C=C/C=C/[C@H](O[C@@H]2O[C@H](C)[C@@H](O)[C@H](N)[C@@H]2O)C[C@@H]2O[C@](O)(C[C@@H](O)C[C@@H](O)[C@H](O)CC[C@@H](O)C[C@@H](O)CC(=O)O[C@H]1C)C[C@H](O)[C@H]2C(=O)O
Cell line: THP-1
| read-out | tested at | setting | inhibition |
| --- | --- | --- | --- |
| host cell growth | 0.2 µM | – | -0.7% and -2.42% and -0.21% and -0.56% and -0.37% and -4.59% |
| host cell growth | 0.002 µM | – | -1.01% and -1.61% and -0.94% and -0.93% and -3.19% and -0.19% |
| – | 2 µM | cytotoxicity | 61% |
| host cell growth | 1 µM | – | 0.65% and -0.38% and -0.53% and -5.39% and -1.44% and -0.54% |

Study 4
Structure (SMILES): Cn1cnc(Cn2ccc3ccc(CNCc4[nH]c5ccccc5c4[C@H]4NC(=O)c5ccc(O)cc54)cc32)c1
Read-out: binding
Action: competitor
Technique: NanoBRET
Cell line: HEK293
KRAS G12C: GTPase KRas (KRAS, Homo sapiens, UniProt P01116, G12C)
| target | tested at | time | baseline | normalized BRET |
| --- | --- | --- | --- | --- |
| KRAS G12C | 247 nM | 2 h | vehicle and 20 µM BI compound | 99.6% and 87% and 88.2% and 96.1% |
| KRAS G12C | 339 pM | 4 h | vehicle and 20 µM BI compound | 83.8% and 84.4% and 85.5% and 99.2% |
| KRAS G12C | 2.22 µM | 1 h | vehicle and 20 µM BI compound | 19% and 17.6% and 15.4% and 17.2% |
| KRAS G12C | 741 nM | 4 h | vehicle and 20 µM BI compound | 43% and 41.5% and 50.9% and 49% |
| KRAS G12C | 9.14 nM | 4 h | vehicle and 20 µM BI compound | 87.5% and 98% and 83% and 89.6% |
| KRAS G12C | 339 pM | 3 h | vehicle and 20 µM BI compound | 122% and 95.2% and 81.5% and 88.4% |
| GTPase KRas (KRAS, Homo sapiens, UniProt P01116) | 3.05 nM | – | – | 103% and 75% and 90% and 99% |
| KRAS G12C | 1.02 nM | 4 h | vehicle and 20 µM BI compound | 76.8% and 96.4% and 90.3% and 79.3% |

Excerpt of the above (study 2):
| target | remaining activity |
| --- | --- |
| Mitogen-activated protein kinase kinase kinase 14 (MAP3K14, Homo sapiens, UniProt Q99558) | 81.8% |
| Ephrin type-A receptor 3 (EPHA3, Homo sapiens, UniProt P29320) | 109% |
| Macrophage-stimulating protein receptor (MST1R, Homo sapiens, UniProt Q04912) | 104% |
| Angiopoietin-1 receptor (TEK, Homo sapiens, UniProt Q02763) | 101% |
| Mitogen-activated protein kinase kinase kinase 5 (MAP3K5, Homo sapiens, UniProt Q99683) | 89% |
| Ribosomal protein S6 kinase alpha-2 (RPS6KA2, Homo sapiens, UniProt Q15349) | 105% |
| Tyrosine-protein kinase Lck (LCK, Homo sapiens, UniProt P06239) | 96.3% |
